Experimental data of several laboratories.
Values joined by “and” are separate records of one study, mostly repeats; a detail may differ.
NMUR1: Neuromedin-U receptor 1 (NMUR1, Homo sapiens, UniProt Q9HB89)
USP13 ZnF-UBD domain: Ubiquitin carboxyl-terminal hydrolase 13, ZnF-UBD domain (USP13, Homo sapiens, UniProt Q92995)

Compound | tested on | assay | test system | setting | scale | quantity | result
CCc1ccccc1-c1ccc(C(=O)NC[C@@H](N)C(=O)O)s1 | Glutamate NMDA receptor; Grin1/Grin2c (Rattus norvegicus, UniProt P35439+Q00961, V689I) | receptor activation, positive modulator | rat | with: glutamate 300 µM |  | EC50 | 5.5 nM
COc1cc(Nc2ncc3c(n2)-c2ccc(Cl)cc2C(c2c(F)cccc2OC)=NC3)ccc1C(=O)NCCOCCOCCNC(=O)COc1cccc2c1C(=O)N(C1CCC(=O)NC1=O)C2=O (stereo not shown) | ABL1 (Homo sapiens, UniProt P00519) | binding, kinobead competition | MV4-11 cell lysate |  |  | EC50 | > 30000 nM
Cn1cc(-c2ccc(-c3cncc(Cl)c3N3CCC4(CCNC4=O)CC3)cc2)cn1 | COLO 205 | gene expression, microarray, refers to: DPP4 mRNA |  | concentration not given, 2 h | baseline: untreated cells | log2 fold change | 2.18
CC(C)C[C@H](NC(=O)[C@H](Cc1ccccc1)NC(=O)[C@@H](N)Cc1ccc(O)cc1)C(=O)N[C@@H](Cc1ccccc1)C(=O)N[C@@H](CCCNC(=N)N)C(=O)N1CCC[C@H]1C(=O)N[C@@H](CCCNC(=N)N)C(=O)N[C@@H](CC(N)=O)C(N)=O | NMUR1 | β-arrestin recruitment, agonist, PathHunter luminescence | CHO-K1 | 90 min, 37 °C |  | EC50 | 1.7 nM
CCCCC[C@H](O)/C=C/[C@H]1[C@H](O)CC(=O)[C@@H]1C/C=C\CCCC(=O)O | PTGER1 (Homo sapiens, UniProt P34995, G87A) | IP1 accumulation, agonist | AD293 | EP1 G87A mutant |  | EC50 | 72.1 nM
CCCCC/C=C\C/C=C\C/C=C\C=C\C(=O)CCCC(=O)O | OXER1 (Homo sapiens, UniProt Q8TDS5) | agonist, cell-based |  |  |  | EC50 | 1820 nM
O=C(O)CCC(=O)Nc1cccc2ccccc12 | USP13 ZnF-UBD domain |  |  |  |  | Kd | > 1000 µM
Nc1nc2c(ncn2[C@@H]2O[C@@H]3COP(=O)(O)O[C@H]3[C@H]2O)c(=O)[nH]1 | Cone cGMP-gated channel (Morone saxatilis, UniProt Q3I0N1+Q3I0N2) | channel current, agonist, suction electrode | Morone saxatilis cone outer segments | with: 0.5 µM Ca2+ |  | EC50 | 171000 nM and 214000 nM
Cn1cc2c(C(=O)O)ccc(NS(=O)(=O)c3ccc(OCC4CCC4)c(Cl)c3)c2n1 | CHRM1 (Homo sapiens, UniProt P11229) | antagonist |  |  |  | EC50 | > 10000 nM
O=C1Nc2c(ccc(Cl)c2Cl)C1=NO | CALM1/Kcnn2 (Homo sapiens, UniProt P0DP23+P70604, L292A/S288A) | ion current, activator, whole-cell patch clamp |  | S288A-L292A double mutant |  | EC50 | > 83000 nM
O=C(O)CCn1nnc(-c2ccccc2)n1 | USP13 ZnF-UBD domain |  |  |  |  | Kd | 950 µM
CC(C)C[C@H](NC(=O)[C@H](Cc1ccccc1)NC(=O)[C@H](Cc1ccc(O)cc1)NC(=O)CNC(=O)[C@H](CCCNC(=N)N)NC(=O)[C@H](CO)NC(=O)[C@H](CCC(N)=O)NC(=O)[C@H](CO)NC(=O)[C@H](C)NC(=O)[C@H](Cc1ccccc1)NC(=O)[C@@H]1CCCN1C(=O)[C@H](CO)NC(=O)[C@H](CCC(N)=O)NC(=O)[C@H](Cc1ccccc1)NC(=O)[C@H](CCC(=O)O)NC(=O)[C@H](CCC(=O)O)NC(=O)[C@H](CC(=O)O)NC(=O)[C@@H](NC(=O)[C@H](CCCNC(=N)N)NC(=O)[C@@H](N)Cc1ccccc1)C(C)C)C(=O)N[C@@H](Cc1ccccc1)C(=O)N[C@@H](CCCNC(=N)N)C(=O)N1CCC[C@H]1C(=O)N[C@@H](CCCNC(=N)N)C(=O)N[C@@H](CC(N)=O)C(N)=O | NMUR1 | beta-arrestin recruitment, agonist, PathHunter luminescence | CHO-K1 | 90 min, 37 °C |  | EC50 | 0.09 nM
O=S(=O)(O)C1CCNCC1 | GABA-A receptor; alpha-1/beta-2/gamma-2 (Rattus norvegicus, UniProt P18508+P62813+P63138) | membrane potential, agonist, QP-DHM fluorescence | HEK293 expressing GABAA |  |  | EC50 | 3700 nM

A few entries again:
Compound | tested on | assay | test system | setting | scale | quantity | result
Cn1cc(-c2ccc(-c3cncc(Cl)c3N3CCC4(CCNC4=O)CC3)cc2)cn1 | COLO 205 | gene expression, microarray, refers to: DPP4 mRNA |  | concentration not given, 2 h | baseline: untreated cells | log2 fold change | 2.18
CC(C)C[C@H](NC(=O)[C@H](Cc1ccccc1)NC(=O)[C@@H](N)Cc1ccc(O)cc1)C(=O)N[C@@H](Cc1ccccc1)C(=O)N[C@@H](CCCNC(=N)N)C(=O)N1CCC[C@H]1C(=O)N[C@@H](CCCNC(=N)N)C(=O)N[C@@H](CC(N)=O)C(N)=O | NMUR1 | β-arrestin recruitment, agonist, PathHunter luminescence | CHO-K1 | 90 min, 37 °C |  | EC50 | 1.7 nM
